Measurements gathered from unrelated publications.
Compare with care: the assays were run in different laboratories. ± gives the spread as reported.
Technique: steady-state kinetics
B1: enzyme (Salinispora arenicola, UniProt A8M783); chain MASTPWISFTTDYGLADGFVAACHGVLARLAPTARVIDVTHLVPPGDVRRGAAVLAQTVPYLPAAVHVAVVDPGVGTARRAIALTAGNGLLVGPDNGLLLDAATALGGVDAAVELTNPDWLGARMSATFHGRDVFAPVAARLALGAPLADAGPAVEPGALVRLPTPLVQPETDGFTAEVLTVDHFGNVQLAATGALLESLPRSLRVAHRPAVHARTFDDAPPGGLLVHVDSAGLVAVAVNGGRAADLLAVTPGDQLRVTAG
B2: ADSL R303C (Homo sapiens, UniProt P30566); chain MAAGGDHGSPDSYRSPLASRYASPEMCFVFSDRYKFRTWRQLWLWLAEAEQTLGLPITDEQIQEMKSNLENIDFKMAAEEEKRLRHDVMAHVHTFGHCCPKAAGIIHLGATSCYVGDNTDLIILRNALDLLLPKLARVISRLADFAKERASLPTLGFTHFQPAQLTTVGKRCCLWIQDLCMDLQNLKRVRDDLRFRGVKGTTGTQASFLQLFEGDDHKVEQLDKMVTEKAGFKRAFIITGQTYTRKVDIEVLSVLASLGASVHKICTDIRLLANLKEMEEPFEKQQIGSSAMPYKRNPMRSECCCSLARHLMTLVMDPLQTASVQWFERTLDDSANRRICLAEAFLTADTILNTLQNISEGLVVYPKVIERRIRQELPFMATENIIMAMVKAGGSRQDCHEKIRVLSQQAASVVKQEGGDNDLIERIQVDAYFSPIHSQLDHLLDPSSFTGRASQQVQRFLEEEVYPLLKPYESVMKVKAELCL
B3: enzyme S252E (Schizosaccharomyces pombe, UniProt P78804); chain MSTPYEPEFQQAYKEIVGSIESSKLFEVHPELKRVLPIISIPERVLEFRVTWEDDKGNCRVNTGYRVQFNSALGPYKGGLRFHPSVNLSILKFLGFEQIFKNALTGLPMGGGKGGSDFDPKGKSDNEIRRFSQAFMRQLFRYIGPQTDVPAGDIGVTGFVVMHMFGEYKRLRNEYSGVVTGKHMLTGGSNIRPEATGYGVVYYVKHMIEHRTKGAETLKGKRVAISGSGNVAQYAALKCIQEGAIVKSISDEKGVLIAKTAEGLVPEEIHEIMALKEKRASIADSASLCKKHHYIAGARPWTNVGEIDIALPCATQNEVSGEEAAALIKQGCRYVAEGSNMGSSAEAVEVFEKSRASGEGCWLAPGKAANAGGVAVSGLEMAQNAQFSTWTHAEVDAKLAGIMQNIFEQSTDVASKYCDSGSNNIPSLVDGANIAGFLKVATAMQAVGDWW
B4: enzyme Y414S/Y415A (Methanosarcina mazei, UniProt Q8PVB1); chain MSEQRSVPLREHLLALKPCRHGGLIQETSETYGIPENEILDFSANFNPLGSPFDYPENGLNFEDIIKKSCGKLLEYPDNRYVEFREAAARFVGLGVTPQSIVPGNGSTEIVRLVVESVIEKGDKVLLPWPTFGEYEMQCRITGAEPVCPSQEEVNTLPDEVLEEAKILFICNPNNPTGKLRTREELKVLAERCREHKTLLYVDEAFIELSDPSQSVADLPAENNYVFVMRSLTKDFAIPGIRMGFGIAPPAMADILNTARLSWNLGAIANNTGIALLNIEGGIDSPYLKKAREMILKEGETLKAKIDRIRGFEAGEVNVNFILVDVSKFMLNSSELTARLAARGVLVRDCVSFHGLGKNYIRVAVRTEKENDRLIAAIGDVITEWGREQAKNELQHVIEKASEEGIGGRKTCESAPCHFEGQNCTFCFCPFYPCENEKTGGKWIQSSRGGRVWSCVDCHLVHKKEIAQKILDCLMHEGDTDELVKVAWKEVMEPIL
B5: enzyme E11H/K10H/Q8H (Geobacillus stearothermophilus, UniProt P42328); chain MKAAVVEHFHHPLKIKEVEKPTISYGEVLVRIKACGVCHTDLHAAHGDWPVKPKLPLIPGHEGVGIVEEVGPGVTHLKVGDRVGIPWLYSACGHCDYCLSGQETLCEHQKNAGYSVDGGYAEYCRAAADYVVKIPDNLSFEEAAPIFCAGVTTYKALKVTGAKPGEWVAIYGIGGLGHVAVQYAKAMGLNVVAVDIGDEKLELAKELGADLVVNPLKEDAAKFMKEKVGGVHAAVVTAVSKPAFQSAYNSIRRGGACVLVGLPPEEMPIPIFDTVLNGIKIIGSIVGTRKDLQEALQFAAEGKVKTIIEVQPLEKINEVFDRMLKGQINGRVVLTLEDK
B6: enzyme Y27L (Thermoplasma volcanium, UniProt Q978S7); chain MAFHGLVKYSDITVEGLPKIQYHGFIGNNRTAMLVAMNGYIDWGCLPNFNSNAVFSSILDKNKGGYFAIFPSDTTDVYVDQYYKEMTNVLVTEFVKNGKIILRLTDFMPDSEYGKISFPEVHRFVESFSEPIDITIDFKPTFNYGQDKPIIEKDQHGFIFTTDKESIGISSEFPLRKNSDRIFGNVKMEPRSSSWIIALYGIHHLFRTTDYKSYLRLQETTDYWRKWASSSSYAGAYHSMVMRSALALKVLFYEPTGLMVAAPTASLPEAIGGERNWDYRFTWIRDTAYVIEALSSIGYKYEATEFLYDMMDMITRDNRIRTIYSIDDSNDLEERIIDYEGYRGSRPVRIGNKAVDQLQIDQYGSIVRAIHSMAKAGGIVNSYLWDFVEQVMAKIEYLWKYPDSSIWEFRTEPKQYVYSKVMSWAAFDSAISMAKDLGLSAPIKQWKSIQDEIKKEVLEKGFDTDTNSFVQYYGSKNIDAALLRLPILGFIPANDEKFLGTLSRIEKELMVDGYLFKRYREDDGLKGDEGSFLMLTFWYIEDLILMKRLKKAREVLESVLEKANHLGLYSEEIDEKSGDFLGNFPQALSHLGVIRVAPKLEEALLKRTSKINS
B7: acsA (Pseudomonas chlororaphis, UniProt Q5CD72); chain MRDYEHVVESFDYLQSATQDLHGELTALNACVECCDRHAHGEAVALYCEAQDGHAERYRFRDLQRQAARFGNFLREQGVKPGDRVAGLMPRTVELLIAILGTWRIGAVYQPLFTAFGPKAIEQRLNCSNARWIVTDPHNRPKLDDVTDCPSIVVTGGAPQNPADHHFWSALNRQADDCAPVLLDASAPFLLMCTSGTTGPAKPLEVPLSAILAFKGYMRDAIDLRADDRFWNLADPGWAYGLYYAVTGPLACGYATLFYDGPFTVESTRHIIAKYAINNLAGSPTAYRFLIAAGAEFADAVRGRLRAVSSAGEPLNPQVVRWFAEQLGVVIHDHYGQTEIGMVLCNHHGLRHPVREGSAGYAVPGYRIVVLDKAHRELPAGQPGVLAVDRERSPLCWFDGYLGMPTQAFAGRYYLSGDIVELNDDGSISFVGRNDDLITTSGYRVGPFDVESALIEHPAVVEAAVIGKPDPQRTELIKAFVVLNTPYLPSPELAEELRLHVRQRLAAHAYPREMEFVDHLPKTPSGKLQRFILRNQEIAKQQALG
B8: SCO6712 Y229F (Streptomyces coelicolor, UniProt Q9XAL8); chain AKGITARTAPAGGEVRHLKMYAEKLADGQMGYGFEKGKASVPGPLIEVNEGDTLHIEFTNTMDVRASLHVHGLDYEISSDGTAMNKSDVEPGGTRTYTWRTHKPGRRDDGTWRPGSAGYWHYHDHVVGTEHGTGGIRNGLYGPVIVRRKGDVLPDATHTIVFNDMTINNRKPHTGPDFEATVGDRVEIVMITHGEFYHTFHMHGHRWADNRTGILTGPDDPSRVIDNKITGPADSFGFQIIAGEGVGAGAWMYHCHVQSHSDMGMVGLFLVKKPDGTIPGYEPHEHGGATAKSGESGEPTGGAAAHEHEH
B9: enzyme K56A (Nitrosopumilus maritimus, UniProt A9A5X4); chain MDSQKFDSIIFDCDGVLVDITQSYDKTIDKTCRYVLKEFAKIDSITIDHKIIDGFASSGGFNDEVDLVYAAILSLYTANKLNKKPSEFIYDVISNTDKTGIRSVQSYLESIYDVSEFLSKLGSLGDRHNNPVYSIFDQFFFGPELYGKLFDKQSKFSEEGMISNDKVILSVSLLETLQKEFGKKIAVVTGRGIESIRYSLKDMMDYFDTKNSAFLEDEPRELAKPNPATLIRAIQSMESKNCLYVGDSMEDYMMAKDAAQAGHSTTFCAIVGTSTNPEDRRKLFADSGVEMILESINDIPKVLNLV
B10: aspC A106G/A17N/A218G/A278L/A281T/A8Q/D18E/F210I/F212I/F350Y/G15S/G249S/I187A/I279A/I29V/I33V/I341V/I5L/I68L/I71L/L46M/M321L/M380L/N285S/N30D/N64T/S129T/S135A/S273G/S351L/T100S/V125I/V136I/V375I/Y244C (Escherichia coli, UniProt P00509); chain MFENLTAQPADPILSLNELFRADERPGKVDLGVGVYKDETGKTPVMTSVKKAEQYLLENETTKTYLGLDGLPEFGRCTQELLFGKGSALINDKRARTAQSPGGTGGLRVAADFLAKNTSVKRVWISNPTWPNHKAIFNSAGLEVREYAYYDAENHTLDFDALINSLNEAQAGDVVLFHGCCHNPTGADPTLEQWQTLAQLSVEKGWLPLIDIAYQGFGRGLEEDAEGLRAFAAMHKELIVASSCSKNFSLYNERVGACTLVAADSETVDRAFGQMKALARTNYSSPPAHGASVVATILSNDALRAIWEQELTDMRQRIQRLRQLFVNTLQEKGANRDFSFVIKQNGMFSYLGLTKEQVLRLREEFGVYAVASGRINVAGLTPDNMAPLCEAIVAVL

Molecule	substrate	conditions	kcat [s⁻¹]
B1 (enzyme)	C[S+](CC[C@H](N)C(=O)O)C[C@H]1O[C@@H](n2cnc3c(N)ncnc32)[C@H](O)[C@@H]1O	pH 7.9, 37 °C, apparent, with: 1-200 µM SAM	0.0075 ± 0.00117
enzyme (Pseudomonas poae, UniProt A0A2S9EJ63)	COc1cc(CO)ccc1O	pH 8, 30 °C	0.657
enzyme (Oryza sativa, UniProt Q6ZGQ4)	O=[N+]([O-])c1ccc(O[C@@H]2O[C@@H](CO)[C@H](O)[C@H]2O)cc1	pH 4, 40 °C, apparent	0.34 ± 0.01
B2 (ADSL R303C)	O=C(O)C[C@H](Nc1ncnc2c1ncn2[C@@H]1O[C@H](COP(=O)(O)O)[C@@H](O)[C@H]1O)C(=O)O	pH 7.4, 25 °C	2.36 ± 0.04
enzyme (Chlorobaculum tepidum, UniProt Q8KC02)	CC(=O)C(=O)O	pH 7.5, 30 °C	6.767 ± 0.02
B3 (enzyme S252E)	NC(=O)C1=CN([C@@H]2O[C@H](COP(=O)(O)OP(=O)(O)OC[C@H]3O[C@@H](n4cnc5c(N)ncnc54)[C@H](O)[C@@H]3O)[C@@H](O)[C@H]2O)C=CC1	pH 7, 30 °C, apparent	180 ± 6
B4 (enzyme Y414S/Y415A)	Nc1ncnc2c1ncn2[C@@H]1O[C@H](COP(=O)(O)OP(=O)(O)OP(=O)(O)O)[C@@H](O)[C@H]1O	pH 8.5, 25 °C, apparent, anoxic, with: L-Thr 10 mM	0.018 ± 0.002
B5 (enzyme E11H/K10H/Q8H)	NC(=O)c1ccc[n+]([C@@H]2O[C@H](COP(=O)(O)OP(=O)(O)OC[C@H]3O[C@@H](n4cnc5c(N)ncnc54)[C@H](O)[C@@H]3O)[C@@H](O)[C@H]2O)c1	pH 8, apparent, cofactor varied	13.31 ± 0.02
PYCR2 (Homo sapiens, UniProt Q96C36)	NC(=O)C1=CN([C@@H]2O[C@H](COP(=O)(O)OP(=O)(O)OC[C@H]3O[C@@H](n4cnc5c(N)ncnc54)[C@H](O)[C@@H]3O)[C@@H](O)[C@H]2O)C=CC1	pH 7.5, 37 °C, apparent, cofactor varied, with: DL-P5C 5000 µM	47.9 ± 5.3
enzyme (Thermococcus kodakarensis, UniProt Q5JHM5)	O=P(O)(O)O	pH 7.5, 80 °C	33 ± 0.9
enzyme F30A (Homo sapiens, UniProt Q08623)	O=c1[nH]cc([C@@H]2O[C@H](COP(=O)(O)O)[C@@H](O)[C@H]2O)c(=O)[nH]1	pH 7, 25 °C	1.83
B6 (enzyme Y27L)	OC[C@H]1O[C@H](O[C@H]2O[C@H](CO)[C@@H](O)[C@H](O)[C@H]2O)[C@H](O)[C@@H](O)[C@@H]1O	pH 3.7, 30 °C	2.6 ± 0.04
enzyme (Pseudomonas aeruginosa, UniProt Q9HTP2)	N=C(N)NCCCC=O	pH 8, 30 °C, per site	58 ± 3
B7 (acsA)	CC(C)CC(=O)O	pH 7	0.123 ± 0.00167
SABP2 (Nicotiana tabacum, UniProt Q6RYA0)	CC(=O)Oc1ccc([N+](=O)[O-])cc1	pH 7.2, 22 °C	2.23 ± 0.0667
B8 (SCO6712 Y229F)	CCn1c(=NN=c2sc3cc(S(=O)(=O)O)ccc3n2CC)sc2cc(S(=O)(=O)O)ccc21	pH 7, 37 °C, NaCl 150 mM, with: O2 cosubstrate	2.13 ± 0.06
B9 (enzyme K56A)	N[C@H](COP(=O)(O)O)Cc1c[nH]cn1	pH 7.8, 25 °C	0.0017 ± 0.0002
B10	N[C@@H](Cc1ccc(O)cc1)C(=O)O	pH 7.5, 25 °C, with: PMP 20 µM	0.14
asd (Escherichia coli, UniProt P0A9Q9)	N[C@@H](CCC=O)C(=O)O	pH 7.6, apparent, with: 1 mM NADP+	0.007 ± 0.003
enzyme (Mycosarcoma maydis, UniProt A0A0U2UYC4)	O=C(O)/C=C(\CC(=O)O)C(=O)O	pH 5.5, 37 °C	38.3 ± 4.01
